Published values pooled from the literature.
Lines come from different studies, so protocols differ. ± marks the error that the study gave.
Cell line: HL-60

`COc1ccc(C([O-])=CC(=O)c2ccc(C(C)(C)C)cc2)cc1.[Cl-].[Ru+2].c1ccc(-c2cccc(-c3ccccn3)n2)nc1` gave an IC50 of 570 nM (cytotoxicity; dark).
`CCCON(Cc1ccc(C(=O)NO)cc1)C(=O)Nc1cc(C)cc(C)c1` has an IC50 of 443 nM (cell growth or viability, ATP luminescence; 72 h).
With `Cc1cc(C)nc(SCC(=O)Nc2ncc(Cc3cccc(OCc4cn(-c5ccc(Cl)cc5)nn4)c3)s2)n1` the inhibition was 4.6 ± 3.6% (cell viability, MTS; 10 µM).
For `CC(C)c1ccc(N(C)c2ccc3c(c2)OCC[C@H]3CNc2cnccc2C(=O)O)cc1`, the IC50 was 9.32 nM (cell growth or viability, ATP luminescence; 7 days).
With `CCOc1cncc(-c2ccc(NC(=O)C3(c4ccnc(NS(=O)(=O)C5CC5)n4)CCOCC3)nc2)n1` the IC50 was 118 nM (cell proliferation, CellTiter-Glo; 72 h).
For `CO[C@@H](C[C@H]1C(C)=CC[C@@H]2[C@]3(C)C[C@H](O[C@@H]4O[C@@H](C)[C@H](O)[C@@H](O)[C@H]4O)[C@@H](O)C(C)(C)[C@H]3CC[C@]21C)[C@H](N)C(=O)O`, the IC50 was > 10000 nM (cell growth or viability, CCK-8; 72 h).
`COc1ccc(C(O)=CC(=O)c2ccc(C(C)(C)C)cc2)cc1.[Ru+2].c1ccc(-c2ccccn2)nc1.c1ccc(-c2ccccn2)nc1` has an IC50 of 170 nM (phototoxicity; light over 450 nm, 29.1 J/cm2).
The IC50 of `CNS(=O)(=O)Nc1nccc(Cc2c(C)c3ccc(Oc4ncccc4F)cc3oc2=O)c1F` is reported as 2.22 nM (cell viability; 7 days).
With `Cc1cc(C)nc(SCC(=O)Nc2ncc(Cc3cccc(OCc4cn(Cc5ccc(C#N)cc5)nn4)c3)s2)n1` the inhibition was 4.6 ± 1.4% (cell viability, MTS; 10 µM).
With `Cc1ccc([N+](=O)[O-])cc1S(=O)(=O)N(C)/N=C/c1cnc2ccc(Br)cn12` the IC50 was 5 nM (cell growth or viability).
The GI50 of `CCN(C(=O)c1cc(F)ccc1Oc1nncnc1N1CCC2(C1)CN([C@H](CCCN(C)CCOC)C(C)C)C2)C(C)C` is reported as > 10000 nM (cell growth or viability; 72 h).
For `COC(CC1C(C)=CCC2C1(C)CCC1C(C)(C)C(O)C(O)CC12C)C(N)C(=O)O` (stereo not drawn), the IC50 was > 10000 nM (cell growth or viability, CCK-8; 72 h).

A few entries again:
With `Cc1cc(C)nc(SCC(=O)Nc2ncc(Cc3cccc(OCc4cn(Cc5ccc(C#N)cc5)nn4)c3)s2)n1` the inhibition was 4.6 ± 1.4% (cell viability, MTS; 10 µM).
